# Measurements pooled from the literature.
# Each numbered part is a random draw from the data of one study; scales do not carry over between parts.

# Study 1 — technique: protein-binding microarray; molecule type: double-stranded DNA, one strand shown; matrix: in vitro; concentration: 940 nM top; notes: 60-bp whole probe; added: salmon DNA 0.4 mg/ml; relative to: random background probes; direction: higher = stronger binding; all sequences stand within: GCCTAGCAC … GTCTTGATTCGCTTGACGCTGCTG
# Target: Interferon regulatory factor 5, full length, phosphomimetic (IRF5, Homo sapiens, UniProt Q13568-2, residues 1-514, S451D/S453D/S456D/S462D)
Sequence,fitted relative affinity [z-score]
GTGGGACCCATGAACACTCAGTGCTAG,-0.491
TCATCTAAGGATTTCAGACTGTGCTAG,-0.306
TTAGGTCTCCGTATCGGTTAGTGCTAG,2.05
TCAGCTATTTTATATGCTACTGTGCTA,-0.0363
TGTCTTTTCACTTTCTTTAAGTGCTAG,3.07
TTAGAACAGAGTCTCGATTAGTGCTAG,1.58
ACAGGAGTGTTTCTCAGTTTGTGCTAG,0.273

# Study 2 — technique: aptamer microarray, sandwich; molecule type: DNA with 2'F-ANA; matrix: in vitro; concentration: 200 nM; added: Cy3 exosite-II aptamer, 400 nM; direction: higher = stronger binding; sequence: GGTTGGTGTGGTTGG
# Target: Prothrombin, mature alpha-thrombin (F2, Homo sapiens, UniProt P00734)
# Notes: whole 15-mer aptamer, many near background
Modification,mean fluorescence intensity [a.u.]
2'F-ANA at 2 4 5 6 10 11 12 15,60.5
2'F-ANA at 2 5 6 7 8 9 14 15,46.5
2'F-ANA at 2 4 9 12 14 15,129
2'F-ANA at 1 2 3 4 5 9 10 12 13 15,48.3
2'F-ANA at 6 7 9 13 14,158
2'F-ANA at 1 2 3 4 5 6 7 9 11 14 15,48.4

# Study 3 — technique: universal PBM; molecule type: double-stranded DNA, one strand shown; matrix: in vitro; concentration: 600 nM; direction: higher = stronger binding
# Target: Sal-like protein 4, full length isoform A (SALL4, Homo sapiens, UniProt Q9UJQ4, residues 1-1053)
# Sequence of UniProt Q9UJQ4 (whole entry, looked up): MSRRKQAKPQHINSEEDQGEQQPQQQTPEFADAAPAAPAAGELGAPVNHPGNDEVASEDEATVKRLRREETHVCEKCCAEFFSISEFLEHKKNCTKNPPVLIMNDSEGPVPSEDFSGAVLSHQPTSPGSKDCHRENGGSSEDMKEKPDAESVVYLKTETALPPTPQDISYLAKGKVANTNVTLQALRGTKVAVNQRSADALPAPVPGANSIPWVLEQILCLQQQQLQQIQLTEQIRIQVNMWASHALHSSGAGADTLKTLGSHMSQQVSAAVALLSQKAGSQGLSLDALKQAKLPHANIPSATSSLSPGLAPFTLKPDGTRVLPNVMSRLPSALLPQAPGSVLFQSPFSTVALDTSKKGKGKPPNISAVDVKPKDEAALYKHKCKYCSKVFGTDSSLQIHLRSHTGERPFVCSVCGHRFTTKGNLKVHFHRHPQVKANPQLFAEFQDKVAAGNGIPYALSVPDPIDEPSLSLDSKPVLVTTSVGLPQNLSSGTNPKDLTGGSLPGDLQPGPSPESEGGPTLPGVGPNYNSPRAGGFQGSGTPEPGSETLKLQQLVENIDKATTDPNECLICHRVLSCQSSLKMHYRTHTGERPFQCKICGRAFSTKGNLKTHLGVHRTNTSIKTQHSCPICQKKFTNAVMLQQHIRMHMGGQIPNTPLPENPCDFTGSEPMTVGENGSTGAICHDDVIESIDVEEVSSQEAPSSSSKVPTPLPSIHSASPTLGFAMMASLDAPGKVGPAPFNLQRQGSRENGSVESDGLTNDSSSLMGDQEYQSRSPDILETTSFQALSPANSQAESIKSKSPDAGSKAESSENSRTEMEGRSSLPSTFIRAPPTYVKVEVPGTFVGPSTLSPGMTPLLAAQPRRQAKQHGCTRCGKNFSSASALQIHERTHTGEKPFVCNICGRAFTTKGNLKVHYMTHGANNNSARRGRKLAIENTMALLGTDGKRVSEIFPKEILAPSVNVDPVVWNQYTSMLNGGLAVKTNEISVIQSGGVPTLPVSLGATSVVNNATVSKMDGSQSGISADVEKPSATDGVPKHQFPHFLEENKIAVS
# Notes: 8-mer, flanks averaged, mean of replicates
Sequence,E-score
TCACCTAA,-0.0118
AAAAATAG,0.374
CTTCAGGA,-0.0448
ACTGCTCC,-0.226
ATCGGAGC,-0.261
AGGACGAT,0.0614
GCGCGCTA,-0.105

# Further values, each from its own experiment
Molecule,target,assay,test system,setting,scale,quantity,value
"PhoQ, residues 284 288 289 292 302 303 TTCLQL","PhoP, residues 12 14 15 18 19 LHSVW (Escherichia coli, UniProt P23836)","Sort-seq, item: YFP reporter",E. coli,"PhoQ-PhoP variant library, added: 10 µM Mg2+","relative to: high Mg2+ state, higher = stronger signaling",fold induction,2.36

# For quick reference, copied from above (study 3):
Sequence,E-score
AAAAATAG,0.374
CTTCAGGA,-0.0448
